Measured values collected from several papers.
A part holds a random share of what one study measured.

Study 1
Target: Sal-like protein 4, full length isoform A (SALL4, Homo sapiens, UniProt Q9UJQ4, residues 1-1053)
Chain of UniProt Q9UJQ4 (whole entry, looked up): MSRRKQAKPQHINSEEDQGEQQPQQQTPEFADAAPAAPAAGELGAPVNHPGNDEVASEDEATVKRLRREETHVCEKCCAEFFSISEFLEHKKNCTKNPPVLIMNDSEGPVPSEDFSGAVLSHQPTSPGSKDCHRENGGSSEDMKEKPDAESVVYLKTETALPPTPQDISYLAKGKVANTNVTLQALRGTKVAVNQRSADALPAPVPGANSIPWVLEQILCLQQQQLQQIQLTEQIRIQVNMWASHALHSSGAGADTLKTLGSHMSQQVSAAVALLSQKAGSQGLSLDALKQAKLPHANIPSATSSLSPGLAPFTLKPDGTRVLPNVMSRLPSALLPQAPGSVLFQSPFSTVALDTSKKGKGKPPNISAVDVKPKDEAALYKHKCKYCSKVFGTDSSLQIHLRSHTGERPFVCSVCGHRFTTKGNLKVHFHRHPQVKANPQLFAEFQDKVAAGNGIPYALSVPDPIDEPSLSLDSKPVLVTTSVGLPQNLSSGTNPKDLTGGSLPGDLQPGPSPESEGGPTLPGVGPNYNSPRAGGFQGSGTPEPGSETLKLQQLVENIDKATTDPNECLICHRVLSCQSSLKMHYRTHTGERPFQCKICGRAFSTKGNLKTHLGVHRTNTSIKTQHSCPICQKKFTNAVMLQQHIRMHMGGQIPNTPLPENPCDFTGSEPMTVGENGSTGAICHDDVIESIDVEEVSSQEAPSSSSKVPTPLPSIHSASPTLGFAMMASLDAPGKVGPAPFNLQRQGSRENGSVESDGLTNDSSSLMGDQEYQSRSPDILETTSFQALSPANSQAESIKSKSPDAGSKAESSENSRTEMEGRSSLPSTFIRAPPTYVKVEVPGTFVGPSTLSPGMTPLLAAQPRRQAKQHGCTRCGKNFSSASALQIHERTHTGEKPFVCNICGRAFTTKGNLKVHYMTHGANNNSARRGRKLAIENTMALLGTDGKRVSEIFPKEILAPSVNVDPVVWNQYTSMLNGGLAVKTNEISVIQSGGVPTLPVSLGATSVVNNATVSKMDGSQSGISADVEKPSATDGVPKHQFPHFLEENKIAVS
Method: universal PBM
Molecule type: double-stranded DNA, one strand shown
Matrix: in vitro
Tested at: 600 nM
Setting: 8-mer, flanks averaged, mean of replicates
Reading: higher = stronger binding
Oligonucleotide	E-score
CCCCCCGG	-0.483
CGGGAATC	-0.204
TACAGGCA	0.0287
AAATTATT	0.468
AAGCACAC	-0.173
CTATCCTC	-0.0988
ACCTGACG	-0.147
CAGCAACC	-0.154
ACGTGGGC	-0.186
AGCTTCAG	-0.111
TAGAGAGA	0.00634
ATAACTAC	0.36

Study 2
Target: Fragile X messenger ribonucleoprotein 1, C-terminal low-complexity region (Fmr1, Mus musculus, UniProt P35922)
Method: RNA Bind-n-Seq
Molecule type: RNA
Matrix: in vitro
Tested at: 200 nM
Setting: whole 134-nt RNA, ends assumed
Together with: 150 mM LiCl
Baseline: input library
Reading: higher = stronger binding
Each molecule: 7-deaza-guanosine replaces G
Constant ends, left off below: GGGAGUUCUACAGUCCGACGAUC … UGGAAUUCUCGGGUGUCAAGG
Oligonucleotide	log2 enrichment
UAACUUUAGAGGAGGAUCUGAUGGAUAUGGCAGUGGACGUGGAUUUGGGGAUGGCUAUAAUGGGGAUGGAGGAGGACCUGGAGGUGGCAA	0.713
AAGUCCUGUGCUACACAUCGUAUGUACCGAAUCGGGUGGGAAAAAGGGAAAAAGGGAAAGUAUUAUGUUACGCCGUUCGGAUCUGCACUU	-0.141
CUCAAGUCCUGUGCUACACAUCGUAUGUACCGAAUCGGUGGAGGUUUUUUUGGAAAGUAUUAUGUUACGCCGUUCGGAUCUGCACUUCCA	0.259
GCAGGAAGUAAAAACAAAUGGAAAUGCUUCGGAUAAUGGCAGGGGUGGGGGUUGCUAAGGAAAGGGUGGGAUGGGAGUGGGUAAAGAGUU	1.29
UCCUCAAGUCCUGUGCUACACAUCGUAUGUACCGAAUCGGAGGUUUGGUGGAAAGUAUUAUGUUACGCCGUUCGGAUCUGCACUUCCAGC	-1.7
UCCUGUGCUACACAUCGUAUGUACCGAAUCAAAUUUUUUUAAACCCCCAAAUUUUUAAAAAAGUAUUAUGUUACGCCGUUCGGAUCUGCA	-0.66
UGCUUCUCUAUGGAAAGGACUUUCCCCCAAGCUGGACGAGGCAUUAAGAAGGAUAGAGGACUCCAGCAGGCUGACUCUACACUUCAUCAU	1.01
CAAGUCCUGUGCUACACAUCGUAUGUACCGAAUCGGGUUUUUGGGUGGGAAAGGGAAAGUAUUAUGUUACGCCGUUCGGAUCUGCACUUC	-0.875

Study 3
Target: Histone acetyltransferase KAT6A, winged helix 1, GST fusion (KAT6A, Homo sapiens, UniProt Q92794, residues 1-85)
Method: protein binding microarray
Molecule type: double-stranded DNA, one strand shown
Matrix: in vitro
Tested at: not given
Setting: 8-mer, flanks averaged, mean of 2 arrays, mostly near background
Baseline: not given
Reading: higher = stronger binding
Residues (chain): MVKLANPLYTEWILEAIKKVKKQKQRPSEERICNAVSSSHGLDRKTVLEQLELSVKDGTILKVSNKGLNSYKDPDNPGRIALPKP
Oligonucleotide	E-score
TGCCTGAA	-0.219
CCAGCTCA	-0.22
ACCTGGGA	-0.195
CGTGTTCC	0.0844
CCATAGCG	0.121
GAAGTATA	0.04
GCGACGAA	-0.106
CACTGTTC	-0.211
ACGTAATG	-0.0509
ACTTCAAT	-0.0741
CCTATGAC	-0.044

Single results of other studies
Molecule	target	test	test system	setting	how to read	measurement	result
PhoQ, residues 284 288 289 292 302 303 GNNTDL	PhoP, residues 12 14 15 18 19 LHSVQ (Escherichia coli, UniProt P23836)	Sort-seq, measured: YFP reporter	E. coli	PhoQ-PhoP variant library, together with: 10 µM Mg2+	baseline: high Mg2+ state, higher = stronger signaling	fold induction	6.13
